Measurements collected from several papers.
Numbered parts are unrelated; each lists some results of a single study.

Block 1 — method: protein binding microarray; molecule type: double-stranded DNA, one strand shown; medium: in vitro; tested at: not given; baseline: not given; direction: higher = stronger binding; endpoint: E-score
Target: Histone acetyltransferase KAT6A, both winged helices, GST fusion (KAT6A, Homo sapiens, UniProt Q92794, residues 1-181)
Setting: 8-mer, flanks averaged, mean of 2 arrays, mostly near background
Construct (chain): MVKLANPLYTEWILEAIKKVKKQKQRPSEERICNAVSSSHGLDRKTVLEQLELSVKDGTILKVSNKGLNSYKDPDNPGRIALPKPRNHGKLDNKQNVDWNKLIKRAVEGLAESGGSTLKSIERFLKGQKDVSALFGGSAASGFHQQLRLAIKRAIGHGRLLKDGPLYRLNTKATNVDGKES
GGCCGGTA: 0.252
CGCGTCGA: 0.293
CAGAACGG: 0.013
ACGTTTGA: -0.0725
CGTACACA: 0.0814
CTGCCGGA: 0.0813
ACTGACGG: 0.143
CCGTATCC: 0.254
CATCCGGC: 0.143
CACGGCAC: 0.247
CTAAGGGC: -0.118
GGTCTTTA: 0.0665
ACACTGAC: -0.111
AGTTAAAA: -0.0872
CCCTAAAC: -0.0607
GAATGGGC: -0.101
CACTCAGG: -0.0503
AGGCACAA: -0.123
ACGAAGGA: -0.0797
ACCCCCGC: 0.19
AAAAAGAG: -0.237
CAACGGAC: 0.188
ACCGACAG: 0.0776
CATATAAG: -0.127
GAGCAGCC: -0.0619

Block 2 — method: protein-binding microarray; molecule type: double-stranded DNA, one strand shown; medium: in vitro; tested at: 2540 nM top; setting: 60-bp whole probe; with: salmon DNA 0.4 mg/ml; baseline: random background probes; direction: higher = stronger binding; endpoint: fitted relative affinity; all sequences stand within: GCCTAGCAC … GTCTTGATTCGCTTGACGCTGCTG
Target: Interferon regulatory factor 3, full length, phosphomimetic (IRF3, Homo sapiens, UniProt Q14653, residues 1-427, S386D/S396D/S398D/S402D/T404D/S405D)
Target sequence (chain): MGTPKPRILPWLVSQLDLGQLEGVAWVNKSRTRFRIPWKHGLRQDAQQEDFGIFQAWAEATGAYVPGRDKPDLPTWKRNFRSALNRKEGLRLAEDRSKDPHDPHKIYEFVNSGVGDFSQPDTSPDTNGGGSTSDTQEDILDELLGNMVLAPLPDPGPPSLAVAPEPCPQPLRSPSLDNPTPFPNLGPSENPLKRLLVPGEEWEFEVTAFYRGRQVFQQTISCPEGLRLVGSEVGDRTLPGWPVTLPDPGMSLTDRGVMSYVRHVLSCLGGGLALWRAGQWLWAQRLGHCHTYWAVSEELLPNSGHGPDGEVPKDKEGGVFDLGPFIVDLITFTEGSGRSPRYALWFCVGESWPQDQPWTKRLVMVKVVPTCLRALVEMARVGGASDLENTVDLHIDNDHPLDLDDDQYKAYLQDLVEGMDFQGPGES
GACGGTTCCCTTTTACTGACGTGCTAG: 5.91 z-score
TTAGGACTGATTATCCTTTAGTGCTAG: 0.884 z-score
TTAGATATCGGGTATCAATTAGTGCTA: 0.329 z-score
TTACATATCAGTCTCGATTAGTGCTAG: 1.61 z-score
TTAGGTTTCCACTTTCGGTTAGTGCTA: 5.55 z-score
GACGGACTGGGTTGCGGGACGTGCTAG: -0.113 z-score
TTAGGTACCCTACTGCTTTAGTGCTAG: 1.52 z-score
TTAGGTTTGGGTCTCGGTTAGTGCTAG: -0.0525 z-score
TTAGGAGTGGTACATGAAGCGTGCTAG: -0.69 z-score
CCAGTTTTCTTTTCATTACTGTGCTAG: 5.75 z-score
CCTTTTTTGTTGTTTTTTGGGTGCTAG: 3.17 z-score
TTAGGTTTCGACTTTCTGTTAGTGCTA: 3.3 z-score
GACGCTTTCGGTTTCGGGACGTGCTAG: 7.74 z-score
GACGGTTCTCTTTTCCTGACGTGCTAG: 2.93 z-score
CTAGATTTCGGGTTTCGATTAGTGCTA: 3.36 z-score
TCAACCATCCCTTATAAAACTGTGCTA: 0.459 z-score
GACGGACTGCTGCTCCTGACGTGCTAG: -0.631 z-score
TTAGGACCGCTACTGCTTTAGTGCTAG: -0.485 z-score
GACGATTACAGTATCGAGACGTGCTAG: 0.527 z-score
TCATTTCTCCTTTCCAAACTGTGCTAG: 5.06 z-score
TTAGGTTCGGGTTTCGGTTAGTGCTAG: 3.85 z-score
TTTTTTTTTTTTTTTTTGTAGTGCTAG: 1.56 z-score
TCAAATTTGAGTCACTGACTGTGCTAG: -0.121 z-score
TTAGATATCAGCTTCGATTAGTGCTAG: 0.194 z-score
GACGATATCGGGATTCGAGACGTGCTA: 0.343 z-score

Block 3 — method: RNA Bind-n-Seq; molecule type: RNA; medium: in vitro; tested at: 365 nM; baseline: no-protein control; direction: higher = stronger binding; endpoint: RBNS enrichment (R)
Target: RNA binding protein fox-1 homolog 2, RRM domain, GST-SBP tag (RBFOX2, Homo sapiens, UniProt O43251-10, residues 100-194)
Setting: natural RNA segment, single round, ends assumed
All sequences stand within: GGGAGUUCUACAGUCCGACGAUC … UGGAAUUCUCGGGUGCCAA
Residues (chain): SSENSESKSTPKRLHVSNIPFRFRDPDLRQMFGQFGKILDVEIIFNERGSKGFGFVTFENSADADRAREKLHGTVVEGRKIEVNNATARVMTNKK
CCUAGUGUUAUCUGUUAUCUUACAAGCCUUUGCCUCUGUGCCUUUUCCUCAUGCUUUUUUGCUUAGAUUACUCUUUGACUGUACCUUCUGUUCAAAUUUGCUUCCUUCAU: 0.896
GGUGUGUUAAAUACCAAGAUUAUUGACGUAUAUACUAAUCAGCUCCAAAUCACAUACAGUUUAAUCUUUAUUUUUUUAAUUUAAAGAAAUCAUGUUUAAAAUGAUAAAAC: 0.46
CUUGGAACACCUUGGGGUCCCUCCACCCCACAGAACCUUCAACCCAGUGGGUCUGGGAUAUGGCUGCCCAGGAGACAGACCACUUGCCACGCUGUUGUAAAAACCCAAGU: 0.489
GGGAAACAUUUGCACUCUUUUAGUGCAUUUCCUCCUGCCUUUGCUUGUUCACUGCAGUCUUAAGAAAGAGGUAAAAGGCAAGCAAAGGAGAUGAAAUCUGUUCUGGGAAU: 0.342
UACUUGAGAACUACAGUUUCUGCUUAUCAUUUAUUCUUCCUUGUGGCACUUAAUAUUUUAAUUGUCUUAAGCUUUUUGAUGUAUAUAUCCUCUGGCCCCUUACAUGCUGC: 1.54
ACCCUUUGUUAGAAGUGUUGACGCUCCAAGCACGCGUGUGAAGCACCAUGUAUCUUGGCCGGUUUCAUAUUUGUAAGAAGCACCGGUAGGAACCUAAGAGCAUCGGUUGG: 1.82
AAUCCCAAGUCGAAAUCACCUCUUGUUUUAAACAAGAAUGAAUCAUUACUGUGUAUGUUAGGGUAUUAAAACUGUUUCACCAGUACAGUGAAAGUUGUUUCAACAUUUUA: 0.403
UAAUUUUAAUUCACAUCACCUGAAAAGUAAAACAACAGGCUUUGCCAAGUGGAUGCUUUUCAGUAACAGUGAAGUGGAGUGAAUACCAAAUGUUUGCCCUGGUGGUUCCU: 0.269
AUUGCAUCAUCACUGACCUGUUAGAAUUUAACCCGGAAACAUCGCAAUAGCAUUUAGGGAUGCACGCACAGUGGUAAUUUAUUACUCAGUUCCGGUUAUGUUUUUCUCCA: 0.522
AAAUUGACUAAAUAAGGUCAAGGAUAAUGUUUUUCAUUGAUUAACCAUUUAUUAUACAUAUAAUCUAUUGAAUAUAAAAAGAUUCACCUUGAAAUAAUAUUUGACUAUAU: 0.558
UCUAAUCCAUGUAGCUUUUUGUUCAAUGACUUGAUCAUCUGCUUCCUUUUUGAAUUUUUAACAGAUAGUAAGUAAAUUUGGUGGUUUUUUCCCCUGGGUCAGUGAUGGAA: 0.36
GAGGUCAACAGCAGGCAUGGGGAGCCGAGUCUUCUGUGCUCAGGUCCUCACGCUGCAGACGCCCCCUAGAGGAACUUUCCUUCCUUUCCAGCAUUCCCCACAGCACUGCC: 0.297

Block 4 — method: RNA Bind-n-Seq; molecule type: RNA; medium: in vitro; tested at: not given; baseline: input RNA pool; direction: higher = stronger binding; endpoint: bound/input enrichment
Target: RING finger protein unkempt homolog, zinc fingers 1-6, GST-SBP tag (UNK, Homo sapiens, UniProt Q9C0B0, residues 30-357)
UniProt Q9C0B0, sequence (30-357, looked up): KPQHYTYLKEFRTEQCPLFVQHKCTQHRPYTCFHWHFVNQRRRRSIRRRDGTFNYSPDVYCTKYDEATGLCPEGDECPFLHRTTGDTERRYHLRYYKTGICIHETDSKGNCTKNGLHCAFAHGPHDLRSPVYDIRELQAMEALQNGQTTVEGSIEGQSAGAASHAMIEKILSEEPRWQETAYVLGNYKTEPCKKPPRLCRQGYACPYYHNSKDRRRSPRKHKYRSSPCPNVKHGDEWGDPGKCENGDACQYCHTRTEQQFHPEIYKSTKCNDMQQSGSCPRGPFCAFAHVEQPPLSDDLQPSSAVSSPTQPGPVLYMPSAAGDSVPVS
Setting: RNA with constant flanks, human and mouse sites, ends assumed
All sequences stand within: GGGAGUUCUACAGUCCGACGAUC … CAACAGAGGAUUGAGCAUCA
GAAGAGGUUCUGCUGGAACAAGCUGGUGUAGAUGCAAGUGAAAGCUUUGAAGAUGUAGGACACUCUUCUGAUGCCAGAGAAAUGCUAAAGCAGUACUACAUUGGUGAUAUCCAUCCGUUG: 0.173 ratio
AGCUCUGAUACCUACUUUAAAUAGAGUUACAUUUAACCUUAAAGCUUUGGAGGAAUGAGCCAUCUCUUACUAGUCAUUAAAAAAAAUAUAUUUAAGAGCUACUACUUGUGAGGGGCUGCC: 3.36 ratio
AUGCAAACUCGGAAAAACCGUAAGAAUGAUGAAGCCUCAUAUGAGAAAAUGCUCAAGCUGCGCCGCGAUCUCAGCCGGGCUGUCACCAUCCUGGAAAUGAUCAAGAGACGGGAGAAGAGU: 0.128 ratio
CCAGAAGCUGUUGAAGUCUUGCUGAAUUAUGCAUACACGGCUCAGUUGAAAGCUGAUAAGGAAUUAGUAAAAGAUGUUUAUUCUGCAGCCAAGAAGCUGAAGAUGGACCGAGUCAAGCAG: 0.391 ratio
CAGUGCCGGGAAGGAACUGCCGGGACUCACCGAGCUGCACUUAACUGUUCUCUUUCUGGCUAUUUUUUGUUGUUUGUUUCUUUGUGUUGACUUUGUCCCUGGCAAAAUUUUCCACUCUGA: 0.231 ratio
GUAGAUAAGGUCAUGGAUCAAAAAGAACAUAAAUUGAAUGGGAAGGUGAUUGAUCCUAAAAGGGCCAAAGCCAUGAAAACAAAAGAGCCGGUUAAAAAAAUUUUUGUUGGUGGCCUUUCU: 0.544 ratio
AAUUUUCUUUUUUGGCCCUAGGCUGGUUGGGACCUCUACAGCUUCAUUCUUUCACCAUUAAAUAGUGGCCUUUUUCAGUAUUUUCCCUCUUCCCCUUUAUAAAUUAUGCUAAAGCCACAA: 1.76 ratio
CCCCCAACUGUUCACCUUUAGAAAUGUCCAGACAAGGAGCCUGGUCUGCUUAUAUCAUGGUUAGGGAUGAUAGUCCGGACUAGCCAGGGUCAAAGUUGCUUUUAAUGUAGAGCCCAACCC: 1.28 ratio
GUGUCAAGAGAUUACAAGGCUCUAAGGGAUGGAAAUAAACUGGCACAGAUGGAAGAAGCUCCACUUUUCCCAGGAGAAUCAAUUAAGGCCAUUGUGAAAGACGUCAUUUAUAUCUGUCCA: 0.116 ratio
AGCAUUUGUCUUGAUAUUCUAAGAUCACAGUGGUCUCCUGCUUUAACUAUUUCUAAAGUUCUUUUAUCCAUUUGUUCACUGCUAUGUGAUCCAAACCCAGACGACCCCCUAGUGCCAGAG: 0.906 ratio
UGGUUUUUGCAGGAAGAAAAAAGAGAAUGCUUUGGAGCUUGUCUCUUUACCUGUUAUGAUCUCUUAAGGCCAGAUGUCGUCCUGGAAACCGCAUGGAGACAUAAUAUCAUGGAUUUCGCC: 0.226 ratio
